Results gathered from unrelated publications.
Every numbered part comes from another study and shows a few of its results, in no order.

Set 1 — method: RNA Bind-n-Seq; molecule type: RNA; medium: in vitro; concentration: 200 nM; setting: whole 134-nt RNA, ends assumed; added: 150 mM KCl; reference: input library; reading: higher = stronger binding
Target: Ras GTPase-activating protein-binding protein 1, full length (G3BP1, Homo sapiens, UniProt Q13283)
Sequence of UniProt Q13283 (whole entry, looked up): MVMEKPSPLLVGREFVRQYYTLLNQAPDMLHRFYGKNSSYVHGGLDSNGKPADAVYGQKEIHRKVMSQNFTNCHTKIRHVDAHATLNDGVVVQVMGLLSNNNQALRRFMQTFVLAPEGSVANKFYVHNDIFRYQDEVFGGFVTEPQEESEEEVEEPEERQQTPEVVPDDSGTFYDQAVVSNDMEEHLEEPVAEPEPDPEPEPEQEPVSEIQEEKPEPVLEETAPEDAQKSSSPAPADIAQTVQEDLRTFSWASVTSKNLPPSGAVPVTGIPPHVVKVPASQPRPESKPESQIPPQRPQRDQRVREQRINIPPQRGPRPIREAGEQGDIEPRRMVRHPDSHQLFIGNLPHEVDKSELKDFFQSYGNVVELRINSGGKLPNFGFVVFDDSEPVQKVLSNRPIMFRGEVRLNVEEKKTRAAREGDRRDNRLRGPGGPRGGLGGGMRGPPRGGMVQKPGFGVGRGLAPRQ
Shared flanks, not repeated: GGGAGUUCUACAGUCCGACGAUC … UGGAAUUCUCGGGUGUCAAGG
Oligonucleotide	log2 enrichment
GGCAGUAGCAGCAGCGCCGGGUCCCGUGCGGAGGUGCUCCUCGCAGAGUUGUUUCUCGAGCAGCGGCAGUUCUCACUACAGCGCCAGGAC	-1.07
UCAAGUCCUGUGCUACACAUCGUAUGUACCGAAUCGGGGAAGGGAAGGGAAGGGAAAGUAUUAUGUUACGCCGUUCGGAUCUGCACUUCC	1.21
GUCCUGUGCUACACAUCGUAUGUACCGAAUCGGGGAAAAAGGGGAAAAAGGGGAGGGGAAAGUAUUAUGUUACGCCGUUCGGAUCUGCAC	0.547
UACUGCUCCUCAGCAGGAAGCGGAUGCUGAGGUGAACACAGAAACACUAAAUAAGUCCUCCCAGGGGAGCUCCUCGAGCACACAAUCAGC	0.683
ACCAUGCAGGUGGGCAUCUUUGGGAAGUGGGGCAAGGGGGGGAUAGGGAGGGGGGUACCACUUUGGGAACAGGUGGUCCCAGGUCGUUUC	1.4
ACCAUGCAGGUAAACAUCUUUGGGAAGUGGGGCAAGGGGGGGAUAGGGAGGGGGGUAACACUUUGGGAACAGGUGGUCCCAGGUCGUUUC	1.22

Set 2 — method: protein binding microarray; molecule type: double-stranded DNA, one strand shown; medium: in vitro; concentration: not given; reference: not given; reading: higher = stronger binding
Target: Histone acetyltransferase KAT6A, winged helix 2, GST fusion (KAT6A, Homo sapiens, UniProt Q92794, residues 85-181)
Setting: 8-mer, flanks averaged, mean of 2 arrays, mostly near background
Target sequence (chain): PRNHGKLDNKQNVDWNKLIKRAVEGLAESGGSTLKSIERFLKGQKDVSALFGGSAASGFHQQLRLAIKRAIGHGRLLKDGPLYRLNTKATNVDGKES
Oligonucleotide	E-score
ATATATAT	0.179
CCGTCGCA	0.155
CGAAAGAC	9.5e-05
GTGTACAC	0.0315
GGAGGTGA	0.14
CACCTGGG	0.0932
CCGGTCTC	0.113

Set 3 — method: RNA Bind-n-Seq; molecule type: RNA; medium: in vitro; concentration: 365 nM; reference: no-protein control; reading: higher = stronger binding
Target: RNA binding protein fox-1 homolog 2, RRM domain, GST-SBP tag (RBFOX2, Homo sapiens, UniProt O43251-10, residues 100-194)
Setting: natural RNA segment, single round, ends assumed
Shared flanks, not repeated: GGGAGUUCUACAGUCCGACGAUC … UGGAAUUCUCGGGUGCCAA
Construct (chain): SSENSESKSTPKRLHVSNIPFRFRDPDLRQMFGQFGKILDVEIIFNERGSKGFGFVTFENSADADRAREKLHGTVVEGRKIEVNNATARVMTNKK
Oligonucleotide	RBNS enrichment (R)
AGUGCCUUCUGUCUGCUCGUUAGCUUUAAUCAAUCAUGCCCUGCCUUGUCCCUCUCACUCCCCAGCCCCACCCCUAAGUGCCCAAAGUGGGGAGGGACAAGGGAUUCUGG	0.488
AAGAUCUAUGCCUUAGUGUUGUUUUUGUUGUCUGCUUUGAUGUAAAAGCAAGAGUAUUUGGAGCAAGAAGCUGCAAUGCGCCAAAUACACAAUAGGCCUUUUCUUUAUCA	0.491
GUAAUUUGAUAUAUUUCAUGGUGGCAAAAUAUUAGCUCUAUUUUGGGACUUUUUCUAGACUUACAUUUAUUCAAAUGCAUAGGAAUAUGUCCUUGUGAUUAUCAGGAUCU	0.384
CACAGCUUCAAAUGUUACCGUCUAGUUAGAUUUUUAUUUAAAAUAUGAAAAACUGCUUUUCCCAAGAUGUUUUUUAAAAACAAAGCUACAAUUUUAAUAUUUAACAUAUU	1.15
CCCGACUCCUCAGUGGAGGAGGAGCUGCGGUCCCUCUGGUGUCUGCCAUCCCCCUCCCUCCCUGGGCCCGGCCCUGGACCCGUCAGGUGCCUGUCCCCAGCCCCAACCCC	0.31
CCUCAGAACUUCAAAAGGGCAAGAUCUUUUUUCCUUCACUUAUUGCUGAAACCAAGAGCACAAUUCCCAUUAAGAGAAGGAUCUCUGUGCUGUAAACUAAACAAAUUGUG	0.378

Mixed results
Molecule	target	assay	system	setting	how to read	endpoint	result
PhoQ, residues 284 288 289 292 302 303 TNSAEL	PhoP, residues 12 14 15 18 19 NHFIF (Escherichia coli, UniProt P23836)	Sort-seq, refers to: YFP reporter	E. coli	PhoQ-PhoP variant library, added: 10 µM Mg2+	reference: high Mg2+ state, higher = stronger signaling	fold induction	13.3
